{"data": "Experimental data collected from several papers", "note": "Parts stem from different laboratories: compare values within a part only. Substitutions count along the parent as printed."}
{"data": "Block 1", "target": "vanadate, free oxyanion", "technique": "microfluidic competitive inhibition", "medium": "in vitro, cell-free expressed", "concentration": "not given", "setting": "derived from inhibition constants, unchanged parent 676 nM", "reading": "lower = stronger binding", "starting sequence": "PafA, mature enzyme, eGFP fusion (Elizabethkingia meningoseptica, UniProt Q9KJX5); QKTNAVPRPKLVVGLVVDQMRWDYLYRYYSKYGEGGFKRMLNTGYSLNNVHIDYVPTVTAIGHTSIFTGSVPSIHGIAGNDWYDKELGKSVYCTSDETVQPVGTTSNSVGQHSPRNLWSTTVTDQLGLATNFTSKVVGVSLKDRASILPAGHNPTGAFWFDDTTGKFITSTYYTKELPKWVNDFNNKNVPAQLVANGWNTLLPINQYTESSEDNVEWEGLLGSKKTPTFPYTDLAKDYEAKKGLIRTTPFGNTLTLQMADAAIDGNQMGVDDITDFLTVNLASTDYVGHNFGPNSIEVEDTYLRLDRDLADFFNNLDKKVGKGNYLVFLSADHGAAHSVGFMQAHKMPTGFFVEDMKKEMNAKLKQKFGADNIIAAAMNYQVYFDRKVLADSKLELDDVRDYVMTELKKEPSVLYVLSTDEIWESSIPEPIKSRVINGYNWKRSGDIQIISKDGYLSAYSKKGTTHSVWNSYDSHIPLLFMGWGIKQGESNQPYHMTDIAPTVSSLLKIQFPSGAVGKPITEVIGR"}
{"Variant": "W217G", "oxyanion analog dissociation constant": "882 nM"}
{"Variant": "K462V", "oxyanion analog dissociation constant": "871 nM"}
{"Variant": "M342V", "oxyanion analog dissociation constant": "787 nM"}
{"Variant": "Q487V", "oxyanion analog dissociation constant": "610 nM"}
{"Variant": "Y29V", "oxyanion analog dissociation constant": "1.12 µM"}
{"Variant": "V339G", "oxyanion analog dissociation constant": "633 nM"}
{"Variant": "S433V", "oxyanion analog dissociation constant": "568 nM"}
{"Variant": "I447V", "oxyanion analog dissociation constant": "882 nM"}
{"Variant": "F37V", "oxyanion analog dissociation constant": "634 nM"}
{"Variant": "H51G", "oxyanion analog dissociation constant": "692 nM"}
{"Variant": "T419V", "oxyanion analog dissociation constant": "713 nM"}
{"Variant": "T278V", "oxyanion analog dissociation constant": "1.05 µM"}
{"Variant": "V102G", "oxyanion analog dissociation constant": "1.02 µM"}
{"Variant": "G219A", "oxyanion analog dissociation constant": "817 nM"}
{"data": "Block 2", "target": "Fragile X messenger ribonucleoprotein 1, C-terminal low-complexity region (Fmr1, Mus musculus, UniProt P35922)", "technique": "RNA Bind-n-Seq", "molecule type": "RNA", "medium": "in vitro", "concentration": "200 nM", "setting": "whole 134-nt RNA, ends assumed", "with": "150 mM LiCl", "baseline": "input library", "reading": "higher = stronger binding", "library": "7-deaza-guanosine replaces G"}
{"Sequence": "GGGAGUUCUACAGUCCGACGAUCUCUUUAUUUGAGCCAGUCUUGCAAGGUUAACUUCUCACUGGGCCUAGUGUGGUGCCCAGGUUUUUGCCUUGCUUCACUUCUGUCUCUACAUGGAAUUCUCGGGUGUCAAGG", "log2 enrichment": -1.38}
{"Sequence": "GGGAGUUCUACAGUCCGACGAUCCUGUGCUACACAUCGUAUGUACCGAAUCGGGUUUUUUUGGUUUUUUUGGGGUUUUUUUGGGAAAGUAUUAUGUUACGCCGUUCGGAUCUGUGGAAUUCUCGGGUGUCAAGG", "log2 enrichment": 0.392}
{"Sequence": "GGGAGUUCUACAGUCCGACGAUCCUCAAGUCCUGUGCUACACAUCGUAUGUACCGAAUCGGGGCCGGGCCGGCCGGAAAGUAUUAUGUUACGCCGUUCGGAUCUGCACUUCCAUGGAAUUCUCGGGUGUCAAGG", "log2 enrichment": 1.07}
{"Sequence": "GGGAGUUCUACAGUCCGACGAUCAAGUCCUGUGCUACACAUCGUAUGUACCGAAUCGGGGCCCGGGCCCGGGGCCCGGGAAAGUAUUAUGUUACGCCGUUCGGAUCUGCACUUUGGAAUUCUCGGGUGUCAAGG", "log2 enrichment": -2.6}
{"Sequence": "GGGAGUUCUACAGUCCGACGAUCUGGCCCUGGUGGCAUGCGGGGAGGAAGAGGUGGCCUCAUGGAUCGUGGUGGUCCCGGUGGAAUGGUCAGAGGUGGCCGUGGUGGAGACAGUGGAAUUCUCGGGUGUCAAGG", "log2 enrichment": -0.176}
{"Sequence": "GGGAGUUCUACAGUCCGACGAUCCAAGUCCUGUGCUACACAUCGUAUGUACCGAAUCGGGGUGGGGUGGGGAAAGGGGAAAGUAUUAUGUUACGCCGUUCGGAUCUGCACUUCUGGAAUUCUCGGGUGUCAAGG", "log2 enrichment": -0.757}
{"Sequence": "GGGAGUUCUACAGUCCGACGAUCGCAGGAAGUAAAAACAAAAAAAAAUGCUUCGGAUAGUGGCAGGGGUGGGGGUUGCUAAGGAAAGGGUGGGAUGGGAGUGGGUAAAGAGUUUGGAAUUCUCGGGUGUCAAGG", "log2 enrichment": 1.28}
{"Sequence": "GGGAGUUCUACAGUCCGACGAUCUAACUUUAGAGGAGGAUCUGAUGGAUAUGGCAGUGGACGUGGAUUUGGGGAUGGCUAUAACGGGUAUGGAGGAGGACCUGGAGGUGGCAAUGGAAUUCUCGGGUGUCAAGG", "log2 enrichment": -0.297}
{"data": "Block 3", "target": "CCND2, cyclin fold, Cln2 fusion (human)", "technique": "yeast growth competition, sequencing", "medium": "yeast", "setting": "weak parent motif", "baseline": "not given", "reading": "higher = stronger binding", "starting sequence": "viral docking peptide; KGVKRKLFAEDSS; partner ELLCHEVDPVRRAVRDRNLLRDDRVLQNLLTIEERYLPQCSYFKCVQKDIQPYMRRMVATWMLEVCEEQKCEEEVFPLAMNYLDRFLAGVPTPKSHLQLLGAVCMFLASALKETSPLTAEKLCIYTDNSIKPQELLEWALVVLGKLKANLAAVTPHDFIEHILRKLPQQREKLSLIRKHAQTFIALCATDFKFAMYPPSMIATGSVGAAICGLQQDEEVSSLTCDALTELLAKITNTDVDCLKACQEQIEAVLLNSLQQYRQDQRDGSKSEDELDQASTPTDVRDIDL"}
{"Variant": "KGVKRKLFKEDSS [A9K]", "normalised enrichment score": -0.0393}
{"Variant": "KGVKRKLFAEDES [S12E]", "normalised enrichment score": -0.117}
{"Variant": "KGVFRKLFAEDSS [K4F]", "normalised enrichment score": -0.212}
{"Variant": "KEVKRKLFAEDSS [G2E]", "normalised enrichment score": 0.0922}
{"Variant": "KGVKRKLTAEDSS [F8T]", "normalised enrichment score": -0.408}
{"Variant": "KGVARKLFAEDSS [K4A]", "normalised enrichment score": 0.289}
{"Variant": "KGVKRKLFAEDIS [S12I]", "normalised enrichment score": 0.17}
{"Variant": "KGVKRKLFADDSS [E10D]", "normalised enrichment score": 0.38}
{"Variant": "KGMKRKLFAEDSS [V3M]", "normalised enrichment score": -0.502}
{"Variant": "KGVKRCLFAEDSS [K6C]", "normalised enrichment score": -0.107}
{"Variant": "KWVKRKLFAEDSS [G2W]", "normalised enrichment score": 0.242}
{"Variant": "KGVKRKLFAELSS [D11L]", "normalised enrichment score": -0.215}
{"Variant": "KGVIRKLFAEDSS [K4I]", "normalised enrichment score": 0.466}
{"Variant": "KGVKRKHFAEDSS [L7H]", "normalised enrichment score": 0.128}
{"Variant": "KGVKRKCFAEDSS [L7C]", "normalised enrichment score": 0.265}
{"Variant": "KGSKRKLFAEDSS [V3S]", "normalised enrichment score": -0.156}
{"Variant": "KGVKRKLCAEDSS [F8C]", "normalised enrichment score": 0.308}
{"Variant": "KGVKRKLFNEDSS [A9N]", "normalised enrichment score": -0.165}
{"Variant": "KGVKRKLFAQDSS [E10Q]", "normalised enrichment score": -0.236}
{"Variant": "KGVKRKLFMEDSS [A9M]", "normalised enrichment score": 0.194}
{"Variant": "KGVKRKLFAGDSS [E10G]", "normalised enrichment score": -0.047}
{"Variant": "KGCKRKLFAEDSS [V3C]", "normalised enrichment score": -0.0405}
{"Variant": "KGVKRKGFAEDSS [L7G]", "normalised enrichment score": 0.321}
{"Variant": "KGVKRKLFWEDSS [A9W]", "normalised enrichment score": -0.266}
{"Variant": "KGVKRKLFAENSS [D11N]", "normalised enrichment score": 0.0436}
{"data": "Other studies, line by line"}
{"Molecule": "COX7B (Homo sapiens, UniProt P24311)", "target or system": "SMIM20 (Homo sapiens, UniProt Q8N5G0)", "assay": "cross-linking MS", "test system": "cell fractions", "conditions": "with: DSSO", "endpoint": "cross-linked residues", "value": "K75 to K38"}
{"Molecule": "CNC(=O)c1ccc(-c2cnn3ccc(C(=O)N(C)c4ccc(Cl)c(C(=O)O)c4)cc23)cc1", "test system": "female C57BL/6 mouse, plasma", "conditions": "oral, 1 mg/kg/day", "endpoint": "Cmax", "value": "1 ng/mL"}
{"Molecule": "PDCD11 (Homo sapiens, UniProt Q14690)", "target or system": "DDX52 (Homo sapiens, UniProt Q9Y2R4)", "assay": "cross-linking MS", "test system": "cell fractions", "conditions": "with: DSSO", "endpoint": "cross-linked residues", "value": "Y1701 to K15"}
{"Molecule": "HNRNPM (Homo sapiens, UniProt P52272)", "target or system": "MYEF2 (Homo sapiens, UniProt Q9P2K5)", "assay": "cross-linking MS", "test system": "cell fractions", "conditions": "with: DSSO", "endpoint": "cross-linked residues", "value": "K388 to K521"}
{"Molecule": "FAM98B (Homo sapiens, UniProt Q52LJ0)", "target or system": "RTRAF (Homo sapiens, UniProt Q9Y224)", "assay": "cross-linking MS", "conditions": "hits only", "endpoint": "interaction screen", "value": "cross-linked"}
{"note": "Repeated from above (block 1):"}
{"Variant": "K462V", "oxyanion analog dissociation constant": "871 nM"}
{"Variant": "S433V", "oxyanion analog dissociation constant": "568 nM"}
{"Variant": "F37V", "oxyanion analog dissociation constant": "634 nM"}
{"Variant": "Q487V", "oxyanion analog dissociation constant": "610 nM"}
